Experimental data pooled from the literature.
Each numbered part is a random draw from the data of one study; scales do not carry over between parts.

Sample 1
Target: Ras GTPase-activating protein-binding protein 1, C-terminal RGG region (G3BP1, Homo sapiens, UniProt Q13283)
Chain of UniProt Q13283 (whole entry, looked up): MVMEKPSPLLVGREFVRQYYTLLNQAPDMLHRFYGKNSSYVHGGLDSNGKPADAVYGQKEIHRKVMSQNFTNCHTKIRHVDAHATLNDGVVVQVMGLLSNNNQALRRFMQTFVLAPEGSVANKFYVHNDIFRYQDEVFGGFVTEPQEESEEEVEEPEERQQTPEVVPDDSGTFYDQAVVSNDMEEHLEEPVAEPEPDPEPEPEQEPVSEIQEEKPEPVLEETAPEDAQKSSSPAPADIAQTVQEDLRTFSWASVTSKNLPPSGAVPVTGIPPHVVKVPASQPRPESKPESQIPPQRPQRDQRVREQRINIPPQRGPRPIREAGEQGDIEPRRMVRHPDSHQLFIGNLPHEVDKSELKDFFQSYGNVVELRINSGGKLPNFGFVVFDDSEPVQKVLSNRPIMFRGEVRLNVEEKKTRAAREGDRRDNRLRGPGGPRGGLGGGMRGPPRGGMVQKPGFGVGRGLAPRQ
Method: RNA Bind-n-Seq
Molecule type: RNA
Medium: in vitro
Tested at: 1 µM
Notes: whole 134-nt RNA, ends assumed
Added: 150 mM KCl
Baseline: input library
Reading: higher = stronger binding
All sequences stand within: GGGAGUUCUACAGUCCGACGAUC … UGGAAUUCUCGGGUGUCAAGG
Sequence | log2 enrichment
CAAGUCCUGUGCUACACAUCGUAUGUACCGAAUCGGGGAGGGGAGGGGUUUGGGGAAAGUAUUAUGUUACGCCGUUCGGAUCUGCACUUC | 2.74
UUGUUUAGCAAUCAAGGAGACCGCGAAGGCGUACAUUCCCGGGUGUUGCUUCCAGGAGAAACCCUGAACGGAGAGCUCGUCCUCUUACCA | -0.522
CAAGUCCUGUGCUACACAUCGUAUGUACCGAAUCGGGAGGGUGGGUUUUUUUGGGAAAGUAUUAUGUUACGCCGUUCGGAUCUGCACUUC | 1.01
UAGGUAUUUCUGGGAAAAGCCAGCUUCUGUUUGCACUGGUCUUCACAACUCGUUACCUGGAUCUUUUUACUUCAUUUAUUUCAUUGUAUA | -2.2
CACAGACAACACGCACCCACACAGACACAGAGGGAAGGGGUUGGGAUGGGGACAGGGUGCACAGCAGGGCGGGGAAGGACCCCAGCCCCU | -1.01
AAGUCCUGUGCUACACAUCGUAUGUACCGAAUCGGAAAAGGGAAAAGGGGAAAAGGAAAGUAUUAUGUUACGCCGUUCGGAUCUGCACUU | -1.61
CAAGUCCUGUGCUACACAUCGUAUGUACCGAAUCGGGAGGGUUUGGGUUUUUGGGAAAGUAUUAUGUUACGCCGUUCGGAUCUGCACUUC | 1.26
GCAGGAAGUAAAAACAAAUGGAAAUGCUUCGGAUAGUGGCAGGGGUGGGGGUUGCUAAGGAAAGGAUGGGAUGGGAGUGGGUAAAGAGUU | 1.75
GUCCUGUGCUACACAUCGUAUGUACCGAAUCGGGAAAAAGGGUUUGGGUUUUUUUGGGAAAGUAUUAUGUUACGCCGUUCGGAUCUGCAC | -0.144
UGGCCAUGGUGGCAUGCGGGGAGGAAGAGGUGGCCUCAUGGAUCGUGGUGGUCCCGGUGGAAUGUUCAGAGGUGGCCGUGGUGGAGACAG | 2.02
GUCCUGUGCUACACAUCGUAUGUACCGAAUCGGGGAGGGGUUUGGGGAAAAAAAGGGGAAAGUAUUAUGUUACGCCGUUCGGAUCUGCAC | 1.16
UGUCCCAGGGAACGCCGGUGCAGAUGUGCUUCUUGUGGGCUCAGAGGCCUUCGUGCUGCUGGACGGGCAGGAGCUGACGCCUCGCUGGAC | -1.62
UCCUGUGCUACACAUCGUAUGUACCGAAUCGGGGCCCCCGGCCCCCGGGGCCCCCGGGGAAAGUAUUAUGUUACGCCGUUCGGAUCUGCA | -1.74
UCAAGUCCUGUGCUACACAUCGUAUGUACCGAAUCGGAAAGGUUUGGUUUUUGGAAAGUAUUAUGUUACGCCGUUCGGAUCUGCACUUCC | -1.15

Sample 2
Target: RNA binding protein fox-1 homolog 2, RRM domain, GST-SBP tag (RBFOX2, Homo sapiens, UniProt O43251-10, residues 100-194)
Method: RNA Bind-n-Seq
Molecule type: RNA
Medium: in vitro
Tested at: 365 nM
Notes: natural RNA segment, single round, ends assumed
Baseline: no-protein control
Reading: higher = stronger binding
All sequences stand within: GGGAGUUCUACAGUCCGACGAUC … UGGAAUUCUCGGGUGCCAA
Target sequence (chain): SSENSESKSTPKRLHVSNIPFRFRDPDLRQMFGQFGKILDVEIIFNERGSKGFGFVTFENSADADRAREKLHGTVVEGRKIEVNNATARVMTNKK
Sequence | RBNS enrichment (R)
UAGCAAAAUAACAUUUCUACCCAGGAUAAUAGUCACAGUUUUCCAGGGAGGGAAUGAUAUAAUUUUCAUGACAAUGUCAUGUGAUGAUAGAAUUUCUCCAUUGAUGAAUC | 0.349
CAGAGGCCCCAUUAGCUUUAAAAUGUAGCCCCAGGUUGGAGCUGGGAACACUGUACUGGCCACUUACCCUCUGGGGCCUCAGCUUUCCCUCCGGAAGGCUGGGAGGAGGU | 0.34
UAGUGUGCCCCAAAUGCAGCUUCACUUUCCAGGUACCCUGAUGCAGAAUAAAGUUUUCAUCAUAAACACAGCUUCUGUAGUAUGUUUUCAGAUGAGUGAGUGUUCUUGAG | 6.43
ACUUGAGGUAUGUACCAUUUGUAUACCUGAAUUUAUUUUAAAGAUAAACUGAAAUGCACAUAGCCAAGUCUUGACAUUACAAGAUUGUGUAUUUCUUAAAAUACAACUUU | 0.41
GCAGUAGACAUUGAAACCAGAGAUUGUCUUCAGAAUACAUAUAAUCUGAAUAGUGUGCUGGCGGGAGUGGUUUGUCGGAGCAGCCACACUGAUUCGGUGUUUUUGCAGUG | 0.755
CCAUAUAAUCCAACAUUGUUGAGAUGUCUUAGGACAUCUAAGGCAAAACUGGCACAUUUGUUCUGCAGACUAUUGCAGGAAUGUUUUUUCCUAGCAUUUCUAUAUUAUCU | 0.451
AAGGAGGGUUUCAAAGAAAAAGGAUUUUGUUUAAAAUACUUUAAAAAUGUUAUUUCCUGCAUCCCUUGGCUGUGAUGCCCCUCUCCCGAUUUCCCAGGGGCUCUGGGAGG | 0.332
UACUAUAUUAAGCUUGAAGAAGCAGAAGAUCCCUGUUAAUGUGUAUGGCCCAGGCCAAGAGCUGUCAAAUGAAAAACUUUGUGCUGAAGCAGGUUUUUAGUAUGUAUAUC | 0.556
ACCUGAAAUGAAGGAAGAGGAGACUCUGCGCAGAGCACUUUGGGUCCGGAGGGCGAGACUCCGGCGGAAGCAUUCCCGGGCGGGUGACCCAGCACGGUCCCUCUUGGAAU | 0.503
UUGAGGUUUAACUAACAAGGAUUUACUUCCAGUAACCUGACAUAUCUCAUCUUGUCAGAGCCCUAUGUGCUAUAUCCACAUUUAUAUAUAUUUUUUCUAGCCUAUGUAGU | 1.13
UGCCCCAGCGGCCCUGGCCCCAGGCUCUAUUAACCUAAAAUGUAGCUCCCUAGCGCUAACCUAGGAACCGCCGCUGCCUGCUGGGGGGCCACGCCCCUCAUGCCCUUGUC | 0.328
CCAGGGUUCUCCCCCCUACACCCUCUGCAGGUGGAGAGAGAGAAGCUGGGCCCAGCCGGGCCGUGCCUGCUGGCACAGACGCCUUAACGCUGUGUGUAUGACUGUGUGAC | 0.3

Sample 3
Target: Sal-like protein 4, full length isoform B (SALL4, Homo sapiens, UniProt Q9UJQ4-2, residues 1-616)
Method: universal PBM
Molecule type: double-stranded DNA, one strand shown
Medium: in vitro
Tested at: not given
Notes: 8-mer, flanks averaged, mean of replicates
Reading: higher = stronger binding
Construct (chain): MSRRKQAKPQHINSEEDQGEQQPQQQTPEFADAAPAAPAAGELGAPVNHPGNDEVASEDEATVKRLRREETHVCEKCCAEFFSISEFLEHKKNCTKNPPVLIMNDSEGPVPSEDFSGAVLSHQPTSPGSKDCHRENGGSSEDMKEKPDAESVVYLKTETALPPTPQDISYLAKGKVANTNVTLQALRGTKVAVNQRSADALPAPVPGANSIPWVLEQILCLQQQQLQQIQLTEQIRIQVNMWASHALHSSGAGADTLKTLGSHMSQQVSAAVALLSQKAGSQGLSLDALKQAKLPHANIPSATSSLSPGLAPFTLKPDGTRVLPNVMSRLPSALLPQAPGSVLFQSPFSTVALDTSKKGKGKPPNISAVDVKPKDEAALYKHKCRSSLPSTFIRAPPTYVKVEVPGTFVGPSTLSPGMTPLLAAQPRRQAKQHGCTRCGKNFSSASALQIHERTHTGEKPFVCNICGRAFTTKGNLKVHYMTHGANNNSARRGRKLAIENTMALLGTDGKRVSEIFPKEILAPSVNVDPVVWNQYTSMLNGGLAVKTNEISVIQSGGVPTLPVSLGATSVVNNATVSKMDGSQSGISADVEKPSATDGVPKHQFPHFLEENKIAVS
Sequence | E-score
CCTGGCCA | -0.144
ACAGGGCA | -0.0813
CAGGTTGC | -0.0402
CAGAATAC | 0.0938
CGTACGGC | -0.0859
AGCGTCAG | -0.0206
ATCAAATA | 0.33
ACAGTCGT | -0.0737
GAGGACTA | 0.00559
GTAACTGA | 0.0513
AACATCTC | 0.108
ACATTGTG | 0.117
GGCCGTCA | -0.221
ACCCCCCC | -0.309
ACGCCGAT | -0.0648
GCAGGACC | -0.302
CTTCACTC | -0.122
AATTTGGT | 0.109
CGAAGCCG | -0.331
CTCATCCA | 0.0278
GCAGCTGA | -0.0858
AGGAACTG | -0.0937
CAAAATTC | 0.293
AAACGTAA | 0.22

Sample 4
Target: Histone acetyltransferase KAT6A, winged helix 1, GST fusion (KAT6A, Homo sapiens, UniProt Q92794, residues 1-85)
Method: protein binding microarray
Molecule type: double-stranded DNA, one strand shown
Medium: in vitro
Tested at: not given
Notes: 8-mer, flanks averaged, mean of 2 arrays, mostly near background
Baseline: not given
Reading: higher = stronger binding
Target sequence (chain): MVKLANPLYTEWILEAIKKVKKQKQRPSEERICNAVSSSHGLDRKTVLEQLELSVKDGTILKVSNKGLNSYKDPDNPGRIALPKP
Sequence | E-score
GTGCACCA | -0.184
AGATGCCA | -0.139
AAATGTAG | -0.0741
CTTTAGAA | -0.056
GAACCCCC | 0.102
GGTGGGGA | -0.185
ACGCACAC | -0.00742
GCTGAGCC | 0.213
ATTCAAGG | -0.226
ATCCCCAT | -0.115
AGACACTA | -0.14
AGGATACC | -0.00558
CGCTCAAG | 0.203
AATGCCGG | 0.344
ACTCTTGC | -0.214
ACCACCAG | -0.293
CAATACTG | -0.122
AGCTGTAC | -0.0121
TATTTTCA | -0.0201
ACTCTGTA | -0.0687
AGCATCCC | -0.0171

Sample 5
Target: RING finger protein unkempt homolog, zinc fingers 1-6, GST-SBP tag (UNK, Homo sapiens, UniProt Q9C0B0, residues 30-357)
Chain of UniProt Q9C0B0 (30-357, looked up): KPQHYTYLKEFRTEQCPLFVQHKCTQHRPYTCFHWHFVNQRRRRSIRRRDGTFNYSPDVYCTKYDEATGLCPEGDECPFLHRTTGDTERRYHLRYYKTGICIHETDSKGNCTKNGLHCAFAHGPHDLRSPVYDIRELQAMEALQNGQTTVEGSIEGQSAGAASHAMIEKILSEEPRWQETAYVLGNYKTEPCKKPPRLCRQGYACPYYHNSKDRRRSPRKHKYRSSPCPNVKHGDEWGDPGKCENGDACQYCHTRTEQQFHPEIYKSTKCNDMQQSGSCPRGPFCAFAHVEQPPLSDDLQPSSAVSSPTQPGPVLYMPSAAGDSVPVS
Method: RNA Bind-n-Seq
Molecule type: RNA
Medium: in vitro
Tested at: not given
Notes: RNA with constant flanks, human and mouse sites, ends assumed
Baseline: input RNA pool
Reading: higher = stronger binding
All sequences stand within: GGGAGUUCUACAGUCCGACGAUC … CAACAGAGGAUUGAGCAUCA
Sequence | bound/input enrichment
UUUAUAUUUAACUAAAUGUAAGGUACGAAUUAUUACAUAUUAAACUUUUCUUCCCCUUCCUAGUUCUGAAGUAGAUAUAUAUAUAUAUAUAUCUACUGUCACAUUCCAUAUAUUUUGAAU | 31.2 ratio
CUGAGACUUUCAAGCCGGCCGCGUCUCCUUCCUCCCCCUUCCCUCCCCCUUUUUUGUUUUCCGUUCCCCUUCCCCCUCCCUUCCCCGUCCCCGACGACCGGAUCCAGAGGAGGCAGCUGC | 1.32 ratio
AGGCUAAUCACCAAUUUCUUAUUUUUUGGUCCAGUUGGAUUCAAUUUUUUGUUUAACAUGAUUUUUCUAUACCGUUAUUGUCGAAUGCUAGAAGAAGGCUCUUUCCGAGGUCGGACAGCA | 1.33 ratio
CGCUCCUUUGGAAAUAAUAAAUAUCCACAAAAUAGUGAUGAUGAAGAAAAUGAACCACAGAUUGAAAAAGAGGAAAUGGAGCUUAGUUUGGUGAUGUCCCAGAGAUGGGACAGCAAUAUU | 0.842 ratio
UCUUAAUCAUAGUCUACCAUCAAAUACUUUAGGAGUAUCCUUAAUGUUUAGAUAGAAUAUUAGCAGCAUGCAAUAAUUACAUCCUAAGUUCUCAAGCAGAGGCAGUCUAUUGCAAGGACC | 26.5 ratio
UUUUUUUUUCCCGGGGUGGGGGGUGUUCUUUGGGGGAAUUUUUUUUUUAAUGGAAGCUUCUAGCAAGCCCUAUGCCCCACCCCAAUCAACCUCUUUGCUUUCUUCUUUAAAAAAAGGAAA | 0.255 ratio
AAGUGGGGUGACGAGGUGGAGUACAUGUUGGUGUCCUUCGAUCAUGAAAAUAGGAAAGUCCAGUUGUUACUGAAUGGAGGCGAUGUUCUUGAGACUCUGCAGGAGAAGGGGGAGAGGACA | 0.772 ratio
AAAUAUGACUCAAGUGUGAGUGGUCAAUCAUCUUUUGUGACAUCCCCAGCAGCAGACAACAUAGAAAUGCUUCCUCAUUAUGAGCCAAUUCCAUUCAGUUCUUCUAUGAAUGAAUCUGCU | 0.248 ratio
UCUCAGACUCCAGCUUCCAGCCCUACGUUCUUCCAGGCAGAGCUAUGGAUCAAAGAAUUAACUAGCGUUUAUGACUCUCGAGCUCGGGAAAGAUUGCGCCGGAUUGAAGAGCAGAAAGCA | 0.319 ratio
UAUGAACUGUUAAAACGGAAUGCAAGGUUUUCAAAAGCCCAGGUCUAACUGUGAUGAUUGGUUUAUUGGUCUACAAUCCCAGCCUGGCAUUUUCCGUGUAAAUCAUAAACAAUAAACAGG | 0.268 ratio
UUUAUGACAUGUCCCUUUAUAUUGAAUGCUGUCACAAAGAAUUUGGGAUUAUAUUAUGACAAUAGAAUUCGCAUGUACAGUGAACGAAGAAUCACUGUUCUCUACAGCUUAGUUCAAGGA | 0.287 ratio
